# Assay results pooled from the literature.
# Lines come from different studies, so protocols differ. Numbers after ± are the reported error.
Compound,target,test,system,conditions,how to read,measurement,result
COc1cc(CCC(C)=O)ccc1O,mouse mAb 1-G12,"antibody binding, indirect competitive ELISA",,added: coating antigen 2-OVA,,IC50,> 4 µg/mL
O=c1c(O)cccn1CCCN1CCN(CCCn2cccc(O)c2=O)CC1,iron(III),,,25 °C,,log K2 stability constant,5.71
CCCCC/C=C/C(=O)CCc1ccc(O)c(OC)c1,mouse mAb 1-G12,"antibody binding, indirect competitive ELISA",,added: coating antigen 5-OVA,,IC50,0.107 µg/mL
CCN(CC)CC(=O)Nc1cccc(-n2cc(-c3ccc4ccc(-c5cn(-c6cccc(NC(=O)CN(CC)CC)c6)nn5)cc4c3)nn2)c1,HIF-2α,Western blot,"nude mouse, tumour xenograft","ip, 15 mg/kg, 8 h",relative to: vehicle,HIF-2α protein level,13.8%
C=CC(=O)N1[C@@H](c2ccc3c(c2)OCO3)c2[nH]c3ccccc3c2C[C@H]1C(=O)N1CCN(C)CC1,human cyclin E1 N112C:CDK2 complex,kinase activity,,"concentration not given, biochemical, added: RB1 peptide or histone H1 substrate",,inhibition,no inhibition
C=CC(C)(C)OCC1OC(OC2C3=C(C(C)COC(C)=O)CC(O)C3(C)C=C3C(COC)CCC3C(C)C2O)C(O)C(OC(C)=O)C1O (centres unmarked),14-3-3 protein sigma,"binding to RAPTOR peptide, stabilizer, fluorescence polarization",,"range over 0 to 500 µM, added: FITC-labelled RAPTOR peptide",,cooperativity factor α,100
Nc1nc2c(CN[C@H](CO)CCP(=O)(O)O)c[nH]c2c(=O)[nH]1,HGPRT Trypanosoma cruzi,inhibitor,,,relative to: Ki T. cruzi HGXPRT over Ki T. cruzi HGPRT,selectivity ratio,100 fold
O=S([O-])c1ccccc1N=Cc1ccccc1[O-].[Cu+2].c1c[nH]cn1,pUC19 plasmid DNA,"hydrolytic cleavage to nicked form, gel electrophoresis",,"100 µM, 2 h",,DNA cleavage,58%
O=C(NCCCCc1ccccc1)n1c(=O)oc2cc(-c3ccc(F)cc3)ccc21,acid ceramidase,enzyme activity and sphingolipid levels,SW-403 and RAW264.7,20 µM,,duration of effect,6 h
CC[C@H](C)[C@H](NC(=O)[C@@H]1CCCN1C(=O)[C@H](CCCNC(=N)N)NC(=O)[C@@H]1CCCN1C(=O)[C@@H]1CCCN1C(=O)[C@@H](NC(=O)[C@@H]1CCCN1C(=O)[C@H](CCCNC(=N)N)NC(=O)[C@@H]1CCCN1C(=O)[C@H](CC(C)C)NC(=O)[C@H](Cc1ccc(O)cc1)NC(=O)[C@H](CO)NC(=O)CNC(=O)[C@H](CCCCN)NC(=O)[C@H](CC(=O)O)NC(=O)[C@@H](NC(=O)[C@H](CCCCN)NC(=O)c1ccc2c(c1)C(=O)OC21c2ccc(O)cc2Oc2cc(O)ccc21)C(C)C)[C@@H](C)O)C(=O)N[C@@H](Cc1ccc(O)cc1)C(=O)N[C@@H](CC(N)=O)C(=O)N[C@@H](CCCNC(=N)N)C(=O)N[C@@H](CC(N)=O)C(=O)NCC(=O)N1CCC[C@H]1C(=O)N[C@@H](CCCNC(=N)N)C(=O)N[C@@H](CC1CCCCC1)C(=O)N[C@@H](Cc1ccccc1)C(=O)N[C@@H](CCC(N)=O)C(=O)N[C@@H](CC(C)C)C(=O)N[C@@H](CC(=O)O)C(=O)O,70S ribosome Escherichia coli,ITC,,"pH 7.5, 30 °C",,Kd,> 10 µM
CCC/C(=C\C1=C(C(F)(F)F)C(=O)c2ccccc2C1=O)C(=O)N(CC)CC,NF-κB,"reporter gene, luciferase reporter",NF90-8,"24 h, basal activity",,EC50,5.2 ± 0.2 µM
C=C/C(=C/C(=O)C[C@H](C)C[C@@H](C)CC[C@H](O)[C@H](C)C(=O)/C=C/[C@H](C)[C@@H](C)O)CC,PP1 (human),enzyme activity,MCF7,"50 µM, 4 h",relative to: untreated,inhibition,19%
CC(C)CCC[C@@H](C)[C@H]1CCC([C@@H]2CC[C@H]3C[C@H](O)CC[C@]3(C)[C@H]2O)[C@]1(C)CC(=O)O (some centres unmarked),"FXR, mouse",,"C57BL/6J male mice, antibiotic-treated, ileum and liver","oral gavage, dose not given, added: taurocholic acid",,FXR target gene mRNA level,decreased
CC[C@H](C)[C@H](NC(=O)[C@H](Cc1ccc(O)cc1)NC(=O)[C@@H](NC(=O)[C@H](CCCNC(=N)N)NC(=O)[C@@H](N)CC(=O)O)C(C)C)C(=O)N[C@@H](Cc1c[nH]cn1)C(=O)N1CCC[C@H]1C(=O)N[C@@H](Cc1ccccc1)C(=O)O,"angiotensin II receptor type 1, human","aldosterone secretion, agonist, EIA","H295R, β-arrestin1 overexpressing",,,EC50,0.006 ± 0.0045 µM
